Results collected from several papers.
± gives the spread as reported.
Cnr2: Cannabinoid receptor 2 (Cnr2, Mus musculus, UniProt P47936)
Urease: Urease (Canavalia ensiformis, UniProt P07374)
Dipeptidyl peptidase 8: Dipeptidyl peptidase 8 (Homo sapiens, UniProt Q6V1X1)
CA1: Carbonic anhydrase 1 (CA1, Homo sapiens, UniProt P00915)
STING1 H232R: Stimulator of interferon genes protein (STING1, Homo sapiens, UniProt Q86WV6, H232R)
MAPK8: Mitogen-activated protein kinase 8 (MAPK8, Homo sapiens, UniProt P45983)
POLB: DNA polymerase beta (POLB, Homo sapiens, UniProt P06746)
HTR1A: 5-hydroxytryptamine receptor 1A (HTR1A, Homo sapiens, UniProt P08908)

Structure (SMILES) | tested on | test | system | setting | scale | endpoint | value
CCOC(=O)[C@](CC)(CCCSCCOCCOCCNC(=O)CCCCCN1C(=CC=CC=CC2=[N+](C)c3ccc4ccccc4c3C2(C)C)C(C)(C)c2c1ccc1ccccc21)NC(=O)c1ccc(C2CC2)c(Cc2ccc(F)cc2)n1 | Cnr2 | ligand displacement, radioligand | – | cell membranes | – | Ki | 50 nM
Fc1ccccc1-c1cc(CN2c3ccccc3C=Cc3ccccc32)on1 | Urease | enzyme activity, inhibitor | – | – | – | Ki | 9280 nM
CC(C)[C@H](NC(=O)[C@H](CCCNC(=N)N)NC(=O)Cc1ccc(CNC(=N)N)cc1)C(=O)N[C@@H](CCCNC(=N)N)C(=O)NCc1ccc(C(=N)N)cc1 | Furin (FURIN, Homo sapiens, UniProt P09958) | enzyme activity, inhibitor | – | with: Pyr-RTKR-AMC 12.5 µM | – | Ki | 0.0097 nM
CCOC(=O)C(CC)(CCCSCCOCCOCCN)NC(=O)c1ccc(C2CC2)c(Cc2ccc(F)cc2)n1 (racemic) | Cnr2 | ligand displacement, radioligand | – | cell membranes | – | Ki | 9.8 nM
Brc1cccc(-c2cc(CN3c4ccccc4C=Cc4ccccc43)on2)c1 | Urease | enzyme activity, inhibitor | – | – | – | Ki | 4050 nM
CCC1(CC)C(=O)N(c2ccc(CC(=O)O)cc2)C1=O | Dipeptidyl peptidase 8 | enzyme activity, inhibitor, fluorescence | – | – | – | Ki | 440 nM
CCOc1cc(-c2cc(CN3c4ccccc4C=Cc4ccccc43)on2)ccc1Cl | Urease | enzyme activity, inhibitor | – | – | – | Ki | 24400 nM
CCCCCCCCCCCC(=O)NC1CCOC1=O (stereo not drawn) | CA1 | enzyme activity, inhibitor, stopped-flow | – | – | – | Ki | 82000 nM
Cn1ccc2c(N3CCN(CCCCOc4ccc5c(c4)NC(=O)CC5)CC3)cccc21 | Histamine H2 receptor (HRH2, Homo sapiens, UniProt P25021) | ligand displacement, radioligand | – | – | – | Ki | 3800 nM
C#Cc1ccc(C(=O)N[C@@H](CCCCNC(=O)c2ccc([N+](=O)[O-])o2)c2nc3ccccc3[nH]2)cc1 | STING1 H232R | reporter gene, inhibitor | THP1-Dual KI-hSTING-R232 | 24 h, 1 h preincubation, with: diABZI 500 nM | – | EC50 | 16300 nM
CCOC(=O)C(CC)(CCCSCCCCCCNC(=O)OC(C)(C)C)NC(=O)c1ccc(C2CC2)c(Cc2ccc(F)cc2)n1 (stereo not drawn) | Cnr2 | ligand displacement, radioligand | – | cell membranes | – | Ki | 367 nM
CC(C)=CCc1cc(C(=O)/C=C/c2ccc(O)cc2)c(O)cc1O | – | phase I metabolism, substrate | human liver microsomes | with: NADPH | – | substrate inhibition constant | 37.1 ± 6.86 µM
CCCCCCC(=O)N[C@H]1CCOC1=O | CA1 | enzyme activity, inhibitor, stopped-flow | – | – | – | Ki | 77100 nM
CCOc1ccc(-c2cc(CN3c4ccccc4C=Cc4ccccc43)on2)cc1 | Urease | enzyme activity, inhibitor | – | – | – | Ki | 2010 nM
Cc1nn(-c2cccc(N)c2)c(=O)c2cnc(Nc3ccc(N4CCNCC4)cc3)nc12 | MAPK8 | kinase activity, inhibitor, SelectScreen kinase profiling | – | – | – | IC50 | > 10000 nM
COC1CN([C@H]2CC[C@H]([C@@]3(C)Oc4c(Cl)cc(C(=O)NCc5c(SC)cc(C)[nH]c5=O)c(C)c4O3)CC2)C1 | – | RNA-seq, item: CREG2 mouse homolog | mouse, HT-1376 xenograft, whole blood | dose not given | baseline: vehicle | log2 fold change | 1.27
O=C(NCCCOP(=O)(O)OP(=O)(O)OP(=O)(O)O)OCC1c2ccccc2-c2ccccc21 | POLB | enzyme activity, inhibitor, radiometric | – | – | – | Ki | 63000 nM
Nc1ncnc2c1ncn2C1OC(CN(CCCC2CNCc3c2ccc(Cl)c3Cl)CCC(N)C(=O)O)C(O)C1O (mixture of isomers) | Phenylethanolamine N-methyltransferase (PNMT, Homo sapiens, UniProt P11086) | enzyme activity, inhibitor, radiolabel | – | pH 6.0, with: [3H-methyl]SAM | – | Ki | 210 nM
O=C1N(c2cccc(CN3CCN(Cc4ccc(Br)cc4)CC3)c2)C(=O)C12CCCCC2 | Dipeptidyl peptidase 8 | enzyme activity, inhibitor, fluorescence | – | – | – | Ki | 17.7 nM
N#Cc1cccc(-c2cc(CN3c4ccccc4C=Cc4ccccc43)on2)c1 | Urease | enzyme activity, inhibitor | – | – | – | Ki | 6280 nM
Nc1ncc(-c2cc(-c3cnn(CC(F)(F)F)c3)ncc2F)nc1C(=O)NC1CNCC(F)C1 (stereo not drawn) | GAK | KINOMEscan | – | 1 µM | baseline: DMSO control | remaining binding | 94%

Structure (SMILES) | tested on | test | system | setting | scale | endpoint | value
COC(=O)[C@@]1(C)C=C(C(=O)NCc2cccc(C(=O)Nc3ccc(Nc4nccc(-c5cccnc5)n4)c(C)c3)c2)C(=O)CC1 | MAPK8 | SPR two-step binding model | – | wild-type protein surface | – | Ki | 7.4 nM
CCCCC1(CC)C(=O)N(c2cccc(CN3CCN(Cc4ccc(Br)cc4)CC3)c2)C1=O | Dipeptidyl peptidase 8 | enzyme activity, inhibitor, fluorescence | – | – | – | Ki | 1310 nM
C#Cc1ccc2nc(C3(NC(=O)c4cc(-c5ccc(F)cc5F)on4)CCN(C(=N)c4ccc([N+](=O)[O-])o4)CC3)[nH]c2c1 | STING1 H232R | reporter gene, inhibitor | THP1-Dual KI-hSTING-R232 | 24 h, 1 h preincubation, with: diABZI 500 nM | – | EC50 | 1290 ± 100 nM
N#CSCCCCCCOc1ccc2c(-c3ccccc3)cc(=O)oc2c1 | CA1 | enzyme activity, inhibitor, stopped-flow | – | – | – | Ki | > 100000 nM
CN1CCN(c2ccc3cnn(Cc4cccc5ccccc45)c3c2)CC1 | HTR1A | ligand displacement, radioligand | – | cell membranes | – | Ki | 1620 nM
Cc1ncsc1-c1ccc(C(C)NC(=O)C2CC(O)CN2C(=O)C(NC(=O)CCCCCCCCCCN2CCCC(Nc3ncc(Cl)c(Nc4ccccc4S(=O)(=O)C(C)C)n3)C2)C(C)(C)C)cc1 (stereo not drawn) | 22Rv1 | RNA-seq, item: TMEM63C mRNA | – | concentration not given | baseline: DMSO | log2 fold change | -1.22
CCCC1(CC)C(=O)N(c2cccc(CN3CCN(Cc4ccc(Br)cc4)CC3)c2)C1=O | Dipeptidyl peptidase 8 | enzyme activity, inhibitor, fluorescence | – | – | – | Ki | 74.9 nM
CCc1c(Cl)cccc1N1CCN(C[C@H](F)CCNC(=O)c2cc3ccccc3[nH]2)CC1 | HTR1A | ligand displacement, radioligand | – | cell membranes | – | Ki | 2860 nM
Clc1cc2nc(c1)CNCc1cc(Cl)cc(n1)CNC2.[Cu+2] | – | superoxide dismutase-like activity, McCord-Fridovich NBT | cell-free system | pH 7.8, with: xanthine/xanthine oxidase | – | IC50 | 517 nM
Cc1ccccc1-c1cc(CN2c3ccccc3C=Cc3ccccc32)on1 | Urease | enzyme activity, inhibitor | – | – | – | Ki | 6590 nM
CCOC(=O)C(CC)(CCCSCCOCCNC(=O)OC(C)(C)C)NC(=O)c1ccc(C2CC2)c(Cc2ccc(F)cc2)n1 (stereo not drawn) | Cnr2 | ligand displacement, radioligand | – | cell membranes | – | Ki | 389 nM
CCC1(CC)C(=O)N(c2cccc(CN3CCN(Cc4ccc(C)c5ccccc45)CC3)c2)C1=O | Dipeptidyl peptidase 8 | enzyme activity, inhibitor, fluorescence | – | – | – | Ki | 306 nM
CCOC(=O)[C@@](CC)(CCCSCCOCCOCCNC(=O)OC(C)(C)C)NC(=O)c1ccc(C2CC2)c(Cc2ccc(F)cc2)n1 | Cnr2 | ligand displacement, radioligand | – | cell membranes | – | Ki | 552 nM
COc1ccc(C(=O)c2c(C(=O)NCCCN(C)C)oc3ccc(Cl)cc3c2=O)cc1OC | Growth hormone secretagogue receptor type 1 (GHSR, Homo sapiens, UniProt Q92847) | ligand displacement, radioligand | – | cell membranes | – | Ki | 762 nM
CCOC(=O)C(CC)(CCCSCCOCCOCCOCCOCCNc1ccc([N+](=O)[O-])c2nonc12)NC(=O)c1ccc(C2CC2)c(Cc2ccc(F)cc2)n1 (stereo not drawn) | Cnr2 | ligand displacement, radioligand | – | cell membranes | – | Ki | 118 nM
O=C(NCCOP(=O)(O)OP(=O)(O)OP(=O)(O)O)OCC1c2ccccc2-c2ccccc21 | POLB | DNA polymerase activity, inhibitor | – | with: 1 mM Mn2+, poly(dA)/oligo(dT) | – | Ki | 10000 nM
CCCCCCC1CCCC(=O)O1 (stereo not drawn) | CA1 | enzyme activity, inhibitor, stopped-flow | – | – | – | Ki | 58600 nM
CCC1(CC)C(=O)N(c2cccc(CN3CCN(Cc4ccc(Br)c5ccccc45)CC3)c2)C1=O | Dipeptidyl peptidase 8 | enzyme activity, inhibitor, fluorescence | – | – | – | Ki | 159 nM
O=c1[nH]c2nc(-c3ccccc3)sc2c(=O)n1O | Ketol-acid reductoisomerase (NADP(+)) (ilvC, Campylobacter jejuni subsp. jejuni serotype O:2, UniProt Q9PHN5) | – | – | pre-incubation 3 h without NADPH, with: NADPH 200 µM, AL 1 mM | – | Ki | 14.2 ± 2.5 nM
Cc1c(Cl)c(=O)oc2cc(OCCCCCCSC#N)ccc12 | CA1 | enzyme activity, inhibitor, stopped-flow | – | – | – | Ki | > 100000 nM
C=CC(=O)Nc1cccc(Cn2ncc3cnc(Nc4cnn(CCOC)c4)nc32)c1 | DMPK2 human | binding, KINOMEscan | – | 100 nM | lower = stronger binding | percent of control | 96%

A few entries again:
Structure (SMILES) | tested on | test | system | setting | scale | endpoint | value
Nc1ncnc2c1ncn2C1OC(CN(CCCC2CNCc3c2ccc(Cl)c3Cl)CCC(N)C(=O)O)C(O)C1O (mixture of isomers) | Phenylethanolamine N-methyltransferase (PNMT, Homo sapiens, UniProt P11086) | enzyme activity, inhibitor, radiolabel | – | pH 6.0, with: [3H-methyl]SAM | – | Ki | 210 nM
O=C1N(c2cccc(CN3CCN(Cc4ccc(Br)cc4)CC3)c2)C(=O)C12CCCCC2 | Dipeptidyl peptidase 8 | enzyme activity, inhibitor, fluorescence | – | – | – | Ki | 17.7 nM
N#Cc1cccc(-c2cc(CN3c4ccccc4C=Cc4ccccc43)on2)c1 | Urease | enzyme activity, inhibitor | – | – | – | Ki | 6280 nM
